Results from different studies.
Parts stem from different laboratories: compare values within a part only. “And” joins repeats or separate records; there may be more than shown.
UniProt P19525, sequence (whole entry, looked up): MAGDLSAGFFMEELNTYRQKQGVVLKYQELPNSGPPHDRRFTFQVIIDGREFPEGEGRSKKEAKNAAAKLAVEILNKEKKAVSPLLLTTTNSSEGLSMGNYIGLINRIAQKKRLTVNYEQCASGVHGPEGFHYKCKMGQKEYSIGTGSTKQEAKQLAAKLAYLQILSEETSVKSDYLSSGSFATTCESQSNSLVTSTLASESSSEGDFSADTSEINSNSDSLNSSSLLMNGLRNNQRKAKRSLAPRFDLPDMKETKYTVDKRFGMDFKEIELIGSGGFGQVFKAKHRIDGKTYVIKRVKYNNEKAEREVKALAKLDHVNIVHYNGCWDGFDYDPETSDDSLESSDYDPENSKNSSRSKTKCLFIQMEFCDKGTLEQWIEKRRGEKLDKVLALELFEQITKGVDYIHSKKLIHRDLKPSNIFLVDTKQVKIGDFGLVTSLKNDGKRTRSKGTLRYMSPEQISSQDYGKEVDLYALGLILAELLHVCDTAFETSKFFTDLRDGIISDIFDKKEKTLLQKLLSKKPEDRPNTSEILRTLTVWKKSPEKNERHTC
UniProt Q9Y6M4, sequence (whole entry, looked up): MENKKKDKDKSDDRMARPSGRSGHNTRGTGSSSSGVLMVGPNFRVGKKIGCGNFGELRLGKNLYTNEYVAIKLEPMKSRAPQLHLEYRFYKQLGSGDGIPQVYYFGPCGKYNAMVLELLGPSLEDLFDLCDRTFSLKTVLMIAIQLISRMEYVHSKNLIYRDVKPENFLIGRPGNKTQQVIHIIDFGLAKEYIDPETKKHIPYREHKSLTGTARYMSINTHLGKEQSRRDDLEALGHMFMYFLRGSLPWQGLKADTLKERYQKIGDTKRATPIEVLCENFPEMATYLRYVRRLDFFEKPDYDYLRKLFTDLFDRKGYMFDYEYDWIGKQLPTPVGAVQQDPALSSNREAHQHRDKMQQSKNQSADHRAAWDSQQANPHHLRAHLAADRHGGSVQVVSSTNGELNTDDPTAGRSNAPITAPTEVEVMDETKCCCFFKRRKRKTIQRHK
UniProt O94768, sequence (whole entry, looked up): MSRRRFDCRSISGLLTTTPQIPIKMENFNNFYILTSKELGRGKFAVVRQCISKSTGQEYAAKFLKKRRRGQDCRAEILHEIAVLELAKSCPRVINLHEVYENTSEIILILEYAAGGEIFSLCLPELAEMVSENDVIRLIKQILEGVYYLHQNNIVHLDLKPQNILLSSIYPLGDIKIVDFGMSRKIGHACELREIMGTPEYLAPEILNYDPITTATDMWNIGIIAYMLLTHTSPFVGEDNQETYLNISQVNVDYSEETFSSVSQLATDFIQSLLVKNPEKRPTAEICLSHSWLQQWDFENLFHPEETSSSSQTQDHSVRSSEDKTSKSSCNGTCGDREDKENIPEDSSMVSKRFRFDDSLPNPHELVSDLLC
UniProt P50613, sequence (whole entry, looked up): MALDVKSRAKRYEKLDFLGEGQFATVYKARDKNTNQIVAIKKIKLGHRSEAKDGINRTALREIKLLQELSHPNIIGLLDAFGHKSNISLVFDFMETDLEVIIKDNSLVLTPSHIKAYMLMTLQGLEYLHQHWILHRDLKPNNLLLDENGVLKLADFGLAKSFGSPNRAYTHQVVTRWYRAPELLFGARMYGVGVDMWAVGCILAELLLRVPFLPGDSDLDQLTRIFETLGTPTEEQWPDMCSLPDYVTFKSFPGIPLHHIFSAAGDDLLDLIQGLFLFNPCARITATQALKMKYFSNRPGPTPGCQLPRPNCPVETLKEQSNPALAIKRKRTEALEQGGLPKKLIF
UniProt Q16512, sequence (whole entry, looked up): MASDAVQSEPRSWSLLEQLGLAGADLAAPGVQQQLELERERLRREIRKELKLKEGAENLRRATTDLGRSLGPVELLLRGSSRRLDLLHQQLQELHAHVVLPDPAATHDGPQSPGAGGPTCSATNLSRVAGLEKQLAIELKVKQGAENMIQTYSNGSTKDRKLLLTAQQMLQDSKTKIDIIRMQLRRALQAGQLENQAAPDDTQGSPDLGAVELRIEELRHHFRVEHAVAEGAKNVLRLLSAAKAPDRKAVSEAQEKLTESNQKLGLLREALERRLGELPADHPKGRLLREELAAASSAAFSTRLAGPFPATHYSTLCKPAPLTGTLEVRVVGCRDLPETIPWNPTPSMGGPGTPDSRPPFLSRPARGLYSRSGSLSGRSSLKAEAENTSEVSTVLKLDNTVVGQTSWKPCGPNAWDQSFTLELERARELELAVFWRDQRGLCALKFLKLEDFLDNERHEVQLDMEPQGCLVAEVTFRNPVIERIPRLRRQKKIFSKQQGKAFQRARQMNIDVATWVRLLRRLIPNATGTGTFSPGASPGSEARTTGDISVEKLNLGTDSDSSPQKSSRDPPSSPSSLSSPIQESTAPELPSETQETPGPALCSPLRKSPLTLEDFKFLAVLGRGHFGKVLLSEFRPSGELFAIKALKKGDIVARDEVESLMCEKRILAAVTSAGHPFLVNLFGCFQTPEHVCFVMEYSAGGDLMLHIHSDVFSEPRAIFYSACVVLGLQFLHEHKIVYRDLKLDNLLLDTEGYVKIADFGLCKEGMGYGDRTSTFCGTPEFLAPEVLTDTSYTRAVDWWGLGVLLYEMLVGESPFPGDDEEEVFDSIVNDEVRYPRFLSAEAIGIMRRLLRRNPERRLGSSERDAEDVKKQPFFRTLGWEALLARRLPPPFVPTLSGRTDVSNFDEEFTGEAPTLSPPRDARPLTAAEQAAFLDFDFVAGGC
UniProt Q8N5S9, sequence (whole entry, looked up): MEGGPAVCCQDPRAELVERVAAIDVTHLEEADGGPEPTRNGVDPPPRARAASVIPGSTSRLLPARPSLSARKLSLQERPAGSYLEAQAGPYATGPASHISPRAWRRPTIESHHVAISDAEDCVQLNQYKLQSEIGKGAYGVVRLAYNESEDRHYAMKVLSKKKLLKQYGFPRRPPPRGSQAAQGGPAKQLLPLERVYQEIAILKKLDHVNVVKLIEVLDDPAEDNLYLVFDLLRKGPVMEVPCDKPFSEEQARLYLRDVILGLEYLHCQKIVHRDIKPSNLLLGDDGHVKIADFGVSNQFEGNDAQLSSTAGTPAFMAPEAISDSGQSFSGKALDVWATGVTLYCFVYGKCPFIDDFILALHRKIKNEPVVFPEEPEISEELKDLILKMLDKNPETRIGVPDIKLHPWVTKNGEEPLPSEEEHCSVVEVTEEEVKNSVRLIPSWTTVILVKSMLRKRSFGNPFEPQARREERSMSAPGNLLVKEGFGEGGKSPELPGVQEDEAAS
UniProt Q15303, sequence (whole entry, looked up): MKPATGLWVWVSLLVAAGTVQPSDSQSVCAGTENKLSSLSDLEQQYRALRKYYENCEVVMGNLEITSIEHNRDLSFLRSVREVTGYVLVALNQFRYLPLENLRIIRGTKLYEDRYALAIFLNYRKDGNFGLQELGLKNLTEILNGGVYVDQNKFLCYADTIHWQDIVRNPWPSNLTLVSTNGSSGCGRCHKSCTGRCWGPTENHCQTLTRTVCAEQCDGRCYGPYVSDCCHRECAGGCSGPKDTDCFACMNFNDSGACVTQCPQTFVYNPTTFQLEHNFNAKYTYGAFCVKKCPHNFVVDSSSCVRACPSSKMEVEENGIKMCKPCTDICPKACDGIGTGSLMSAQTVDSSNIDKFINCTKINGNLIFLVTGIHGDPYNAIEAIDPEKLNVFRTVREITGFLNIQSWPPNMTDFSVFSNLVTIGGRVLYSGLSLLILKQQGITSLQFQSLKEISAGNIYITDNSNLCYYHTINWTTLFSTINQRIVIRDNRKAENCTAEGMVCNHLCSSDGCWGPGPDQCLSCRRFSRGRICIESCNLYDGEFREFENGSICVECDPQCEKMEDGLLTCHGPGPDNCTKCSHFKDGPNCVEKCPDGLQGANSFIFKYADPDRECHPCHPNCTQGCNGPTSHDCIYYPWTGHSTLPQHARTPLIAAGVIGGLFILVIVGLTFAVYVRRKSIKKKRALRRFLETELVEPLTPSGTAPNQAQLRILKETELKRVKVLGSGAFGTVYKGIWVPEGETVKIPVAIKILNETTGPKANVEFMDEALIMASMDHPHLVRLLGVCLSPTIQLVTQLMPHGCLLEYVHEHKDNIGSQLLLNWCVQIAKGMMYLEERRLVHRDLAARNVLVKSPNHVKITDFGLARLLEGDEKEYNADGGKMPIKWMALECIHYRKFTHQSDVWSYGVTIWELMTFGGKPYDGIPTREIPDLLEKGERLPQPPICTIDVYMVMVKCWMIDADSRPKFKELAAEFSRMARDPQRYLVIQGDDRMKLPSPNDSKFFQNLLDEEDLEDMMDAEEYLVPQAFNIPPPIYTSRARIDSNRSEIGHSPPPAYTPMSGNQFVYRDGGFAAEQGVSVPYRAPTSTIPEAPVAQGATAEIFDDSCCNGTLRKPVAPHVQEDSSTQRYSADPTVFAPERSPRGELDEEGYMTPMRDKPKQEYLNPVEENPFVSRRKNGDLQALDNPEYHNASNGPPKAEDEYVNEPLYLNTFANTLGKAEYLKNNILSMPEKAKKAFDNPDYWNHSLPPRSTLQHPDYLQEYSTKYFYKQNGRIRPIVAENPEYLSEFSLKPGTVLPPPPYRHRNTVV
UniProt O00506, sequence (whole entry, looked up): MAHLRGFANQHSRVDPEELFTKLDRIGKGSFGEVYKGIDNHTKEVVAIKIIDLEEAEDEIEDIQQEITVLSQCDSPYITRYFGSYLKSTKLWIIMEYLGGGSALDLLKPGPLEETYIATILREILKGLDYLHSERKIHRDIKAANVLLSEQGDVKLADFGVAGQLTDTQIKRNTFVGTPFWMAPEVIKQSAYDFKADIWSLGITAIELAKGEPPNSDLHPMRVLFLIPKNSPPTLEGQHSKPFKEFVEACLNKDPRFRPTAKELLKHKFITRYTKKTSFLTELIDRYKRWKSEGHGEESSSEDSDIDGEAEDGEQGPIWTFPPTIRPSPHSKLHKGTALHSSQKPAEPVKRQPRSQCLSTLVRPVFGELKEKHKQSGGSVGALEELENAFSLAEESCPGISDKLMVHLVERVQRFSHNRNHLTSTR

Series 1 — cell line: U-87 MG; concentration: concentration not given; relative to: DMSO; measurement: log2 fold change
Structure (SMILES): CCN1/C(=C/C=C2\CCCC(/C=C/C3=[N+](CC)c4ccccc4C3(C)C)=C2NCCCCCCCCN2CCC(Nc3nc4ccccc4n3Cc3ccc(F)cc3)CC2)C(C)(C)c2ccccc21
refers to: POR mRNA: 0.935
refers to: HMMR mRNA: -1.31
refers to: CCN1 mRNA: -1.95
refers to: CYTH4 mRNA: -2.2
refers to: SVEP1 mRNA: -2.15
refers to: TET2 mRNA: 1.04
refers to: OLFML2A mRNA: -2.55
refers to: YWHAH mRNA: -1.03
refers to: NGEF mRNA: -1.45
refers to: SKIL mRNA: 0.809
refers to: BMPER mRNA: -2.68
refers to: FBXO28 mRNA: 0.979
refers to: PPP1R15A mRNA: 2.25
refers to: EBP mRNA: -1.19
refers to: SRXN1 mRNA: 1.45
refers to: POP1 mRNA: -0.897

Series 2 — cell line: AsPC-1; technique: in-cell ELISA; measurement: phospho-ERK1/2 level
Structure (SMILES): Cc1ncsc1-c1ccc(C2(NC(=O)C3CC(O)CN3C(=O)C(NC(=O)c3ccc(COc4c(-c5c(C)c(F)cc6[nH]ncc56)c(C5CC5)cc5c(N6CC7CC6CN7)nc(OC6CCOCC6)nc45)cc3)C(C)(C)C)CC2)cc1 (stereo not shown)
10 nM, individual replicates: 109% and 88.8% and 104% and 101%
1 nM, individual replicates: 85.2% and 105% and 95% and 88.4% and 83.6% and 101%
30 nM, per-experiment values: 95% and 105% and 99.3%
10 µM, per-experiment values: 13.3% and 15.2% and 10.1%
300 nM, individual replicates: 59.2% and 96.9% and 63.2% and 93.9% and 57.7% and 92.8%

Series 3 — cell line: HCC1569; technique: in-cell western; refers to: CDK1 phospho-Thr14; concentration: 13.72 nM; measurement: pCDK1 (Thr14) level
Cc1ccc(O)c(C)c1-c1cnc2[nH]c(-c3cnc(N4CCC(CN5CCN(c6ccc7c(c6F)CN(C6CCC(=O)NC6=O)C7=O)CC5)CC4)nc3)cc2c1C#N (stereo not shown): 16 RLU and 11 RLU
Cc1ccc(O)c(C)c1-c1cnc2[nH]c(-c3cnc(N4CCC(CN5CCN(c6ccc7c(c6)CN(C6CCC(=O)NC6=O)C7=O)CC5)CC4)nc3)cc2c1C#N (stereo not shown): 18.9 RLU and 28 RLU
Cc1ccc(O)c(C)c1-c1cnc2[nH]c(-c3cnc(N4CCC5(CC4)CC(CN4CCN(c6ccc(NC7CCC(=O)NC7=O)cc6F)CC4)C5)nc3)cc2c1C#N (stereo not shown): 31 RLU and 30.1 RLU
Cc1ncc(-c2cc3c(C(F)(F)F)c(-c4c(C)ccc(O)c4C)cnc3[nH]2)cn1: 12.1 RLU and 10.6 RLU
Cc1ccc(O)c(C)c1-c1cnc2[nH]c(-c3cnc(N4CCC(CCN5CCN(c6ccc(NC7CCC(=O)NC7=O)cc6F)CC5)CC4)nc3)cc2c1C#N (stereo not shown): 43.9 RLU and 49.1 RLU
Cc1ccc(O)c(C)c1-c1cnc2[nH]c(-c3cnc(N4CCC(CCN5CCN(c6ccc(N7CCC(=O)NC7=O)cc6F)CC5)CC4)nc3)cc2c1C#N: 13.4 RLU and 17 RLU
Cc1ccc(O)c(C)c1-c1cnc2[nH]c(-c3cnc(N)nc3)cc2c1C#N: 25.5% and 29.2%

Series 4 — concentration: 1 µM; measurement: remaining binding
Structure (SMILES): CC[C@@]1(c2cccc(-c3c(F)cncc3OC)c2)C2=C(Nc3n[nH]cc31)[C@H](F)C(C)(C)CC2=O (single isomer, unassigned)
PRKACB (Homo sapiens, UniProt P22694); binding, competition with immobilised ligand: 84%
Tyrosine-protein kinase JAK2, JH1 (JAK2, Homo sapiens, UniProt O60674); binding, competition with immobilised ligand: 82%
CSNK1G3 (Homo sapiens, UniProt Q9Y6M4); binding, competition with immobilised ligand: 74%
PIK3CA (Homo sapiens, UniProt P42336, Q546K); kinase binding, KINOMEscan; relative to: DMSO control: 63%
HIPK2 (Homo sapiens, UniProt Q9H2X6); binding, competition with immobilised ligand: 65%
STK17B (Homo sapiens, UniProt O94768); kinase binding, KINOMEscan; relative to: DMSO control: 80%
SYK (Homo sapiens, UniProt P43405); binding, competition with immobilised ligand: 98%
DAPK2 (Homo sapiens, UniProt Q9UIK4); binding, competition with immobilised ligand: 80%
EIF2AK2 (Homo sapiens, UniProt P19525); kinase binding, KINOMEscan; relative to: DMSO control: 94%
PKN1 (Homo sapiens, UniProt Q16512); kinase binding, KINOMEscan; relative to: DMSO control: 100%
ULK3 (Homo sapiens, UniProt Q6PHR2); binding, competition with immobilised ligand: 48%
STK25 (Homo sapiens, UniProt O00506); kinase binding, KINOMEscan; relative to: DMSO control: 85%
KIT (Homo sapiens, UniProt P10721, D816H); kinase binding, KINOMEscan; relative to: DMSO control: 65%
CDK7 (Homo sapiens, UniProt P50613); binding, competition with immobilised ligand: 86%
CAMKK1 (Homo sapiens, UniProt Q8N5S9); binding, competition with immobilised ligand: 93%
AKT3 (Homo sapiens, UniProt Q9Y243); kinase binding, KINOMEscan; relative to: DMSO control: 99%
ERBB4 (Homo sapiens, UniProt Q15303); binding, competition with immobilised ligand: 69%
CAMKK2 (Homo sapiens, UniProt Q96RR4); kinase binding, KINOMEscan; relative to: DMSO control: 84%

Repeated from above (series 1):
refers to: POR mRNA: 0.935
refers to: BMPER mRNA: -2.68
refers to: OLFML2A mRNA: -2.55
refers to: FBXO28 mRNA: 0.979
refers to: TET2 mRNA: 1.04
